# Measured values of several laboratories.
# Every numbered part comes from another study and shows a few of its results, in no order.

# Sample 1
# Target: Histone acetyltransferase KAT6A, winged helix 2, GST fusion (KAT6A, Homo sapiens, UniProt Q92794, residues 85-181)
# Method: protein binding microarray
# Molecule type: double-stranded DNA, one strand shown
# Matrix: in vitro
# Concentration: not given
# Notes: 8-mer, flanks averaged, mean of 2 arrays, mostly near background
# Baseline: not given
# Reading: higher = stronger binding
# Target sequence (chain): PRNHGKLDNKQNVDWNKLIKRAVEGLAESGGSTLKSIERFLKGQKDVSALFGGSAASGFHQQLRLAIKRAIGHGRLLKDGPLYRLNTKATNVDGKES
Strand,E-score
CCCATATA,-0.224
TAGAATGA,-0.0888
GGCAGTAC,0.0364
AGAGCATG,0.0275
AGGAATCA,0.0592
AGATAAGC,-0.104
CGACATAG,-0.103
ACAAGAGC,-0.0812
ACACTCGT,-0.0505
AAGCATCG,0.067
ACTTGTAC,-0.166
AATTCCCA,-0.0664
GAGTCCGA,0.0883
CAATCTAA,-0.0727
AACACAGT,-0.119
GATGATGC,-0.0999
TACTTAAA,-0.0669
GTAAGGTA,-0.0199
AACGGGTA,0.143
AAGGCGAT,0.0423
CTTTAGTC,-0.0775
ACGAACAT,0.1

# Sample 2
# Target: RING finger protein unkempt homolog, zinc fingers 1-6, GST-SBP tag (UNK, Homo sapiens, UniProt Q9C0B0, residues 30-357)
# Sequence of UniProt Q9C0B0 (30-357, looked up): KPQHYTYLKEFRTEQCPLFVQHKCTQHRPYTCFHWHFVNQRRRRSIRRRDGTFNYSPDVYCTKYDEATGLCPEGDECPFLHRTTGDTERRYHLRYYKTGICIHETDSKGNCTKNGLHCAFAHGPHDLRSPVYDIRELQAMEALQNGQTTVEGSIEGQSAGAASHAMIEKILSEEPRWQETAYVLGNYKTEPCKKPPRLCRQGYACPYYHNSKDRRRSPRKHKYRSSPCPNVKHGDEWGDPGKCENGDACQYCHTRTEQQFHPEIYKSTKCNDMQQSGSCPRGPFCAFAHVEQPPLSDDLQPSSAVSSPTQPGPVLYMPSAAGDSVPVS
# Method: RNA Bind-n-Seq
# Molecule type: RNA
# Matrix: in vitro
# Concentration: not given
# Notes: RNA with constant flanks, ends assumed
# Baseline: input RNA pool
# Reading: higher = stronger binding
# Shared flanks, not repeated: GGGAGUUCUACAGUCCGACGAUC … CAACAGAGGAUUGAGCAUCA
Strand,bound/input enrichment [ratio]
CCUCUGCUUCCGCACUCCCCUGCCUGCCUUUUGGCAACAUUUUUUUUCUUAUUUUUUUUUAACCGUGUAUAUUUUUUUUCUUUUUCUUUUUUUCUUUUUUUUUUUUAAGAAAAAAACAAA,30.6
AGAUUGAUUUUCUUAGACUCCAUUAAGUCCAAAUCCAAAGACUCUGUGUGGGAAAAAGAAACCGAAAUACUUAUAGAGGAAAAUGAGGACCUCAAACAACAAUGUAUUCAGCUAAAUGAA,0.168
GACAGGGUAGGUGAUAUCCAUAUUUUGGAAGUCACAAAUAACCUAGAGCAUAAGUCCACUUUCCGUAUUUCGAAUUUUCUUAACAAGAGCAGAGGAAAUAACUUUACUGCAAAUCAGAAC,0.173
UUUUCUUUCUUUCUUAGCUGUUAGCUGAGAGGAAGUCUCUGAACAGGCGGCAGCGGCUCUUACCGUGCAACCAUGGCAGACUAUUCAACAGUGCCUCCCCCCUCUUCUGGCUCAGCUGGU,0.19
AACGGCGCCCCAGCGUGUGCCCAGAAACUCUAUGCAGAACUGUGCCAGGGCAUCGUGGACACCGCCAUAUCCAGUGUCUUCCCACCCCCGGACACGGAGCAGGUGCCGCAGCAGCCGGCU,0.119
UAAUAAAAACUGGAGAAAUAGGAAUUUGUGAACUCCUAAAAUUGUAGCAACUUUGAAAGGUCCGUGUUUUAUUUACCUGACAAAUGGAAGUUAUAGAAGUCUAAUAAUGUUAAGCACCAG,1.93
UACGGCAAAGGCAAGAGUAACAGCAGCGCCGUCCCGUCCGACAGCCAGGCCCGGGAGAAGUCCGCACUCUACGUAUAUGAAUAUCUGCUCCAUGUAGGAGCUCAGAAAUCAGCUCAAACA,0.115
GAAAAAUUUGAAAUGUUUUUGGUUCACUAGUACAAUGUUUGGUUUUAUUCCUAAAGUAAACCGCUAUCUAAGAGAGGGCAUUUUCACUUUUUUUUUUUUAAAUUUUGAGACAGGCUCUCA,0.965
CUGUUUAUGGGAGACUAUGUGGACAGAGGAUAUUACUCUGUUGAAACAGUUACACUGCUUGCCGCUCUUAAGGUUCGUUACCGAGAGCGCAUCACCAUACUCCGAGGGAAUCACGAGAGC,0.154
CCAGGCCCAGCCAAGUCAGAGUUUGACUUAGCAACUAUUUCUAGAAUUUUUUCAGCUCUUUCCGUGACAGCUUUUAAACCAUCAAUCUUUUUGUUUUGUUUUUUUGUUUUUCAAGACACG,11
GUGUGAGCCUGCGCAGGACAGUUUCAGGUGGUUUUAAAGAACACGUGGAAAUCCCUUGAAUUCCGGACCUGGUUAACCAGAAAGAUAAGACUGUUCUUAACGACCUAGAUGAUUCUGUUC,0.292

# Sample 3
# Target: Prothrombin, mature alpha-thrombin (F2, Homo sapiens, UniProt P00734)
# Method: aptamer microarray, sandwich
# Molecule type: DNA with 2'F-ANA
# Matrix: in vitro
# Concentration: 200 nM
# Notes: whole 15-mer aptamer, many near background
# Added: Cy3 exosite-II aptamer, 400 nM
# Reading: higher = stronger binding
# Strand: GGTTGGTGTGGTTGG
Modification,mean fluorescence intensity [a.u.]
2'F-ANA at 2 3 8 9 10 11,351
2'F-ANA at 1 6 8 11 14,54.3
2'F-ANA at 1 2 3 4 5 8 10 13 14,45.8
2'F-ANA at 2 3 7 11 12,1130
2'F-ANA at 2 5 6 9 10 13 14,45
2'F-ANA at 4 8 10 11 12 15,95.8
2'F-ANA at 1 2 8 9 10 12 14 15,48.6
2'F-ANA at 3 5 6 8 9 10 12 13,55.7
2'F-ANA at 1 7 8 9 10 11 14 15,58.8
2'F-ANA at 1 2 3 9 10 14 15,64.9
2'F-ANA at 5 6 8 11,68.8
2'F-ANA at 1 2 3 4 6 8 11 14 15,58.8
2'F-ANA at 4 7 8 9 10 12 14 15,72
2'F-ANA at 2 3 4 5 7,151
2'F-ANA at 1 3 6 7 10 11 12 13 14,62.5
2'F-ANA at 1 2 3 7 8 14 15,123
2'F-ANA at 1 3 6 10 13 15,74.3
2'F-ANA at 1 5 6 7 8 10 11 12 14 15,49.1
2'F-ANA at 1 3 5 6 10 14,45.7
2'F-ANA at 1 3 4 7 13 14,71.4
2'F-ANA at 1 2 3 4 5 6 8 9 10 11 14,52.2
2'F-ANA at 7 8 11 12 13 14,283
2'F-ANA at 1 2 4 7 10 12 13 15,77.5
2'F-ANA at 1 6 7 11,156
2'F-ANA at 1 5 6 8 9 10 11 12,51

# Sample 4
# Target: Sal-like protein 4, full length isoform B (SALL4, Homo sapiens, UniProt Q9UJQ4-2, residues 1-616)
# Method: universal PBM
# Molecule type: double-stranded DNA, one strand shown
# Matrix: in vitro
# Concentration: not given
# Notes: 8-mer, flanks averaged, mean of replicates
# Reading: higher = stronger binding
# Construct (chain): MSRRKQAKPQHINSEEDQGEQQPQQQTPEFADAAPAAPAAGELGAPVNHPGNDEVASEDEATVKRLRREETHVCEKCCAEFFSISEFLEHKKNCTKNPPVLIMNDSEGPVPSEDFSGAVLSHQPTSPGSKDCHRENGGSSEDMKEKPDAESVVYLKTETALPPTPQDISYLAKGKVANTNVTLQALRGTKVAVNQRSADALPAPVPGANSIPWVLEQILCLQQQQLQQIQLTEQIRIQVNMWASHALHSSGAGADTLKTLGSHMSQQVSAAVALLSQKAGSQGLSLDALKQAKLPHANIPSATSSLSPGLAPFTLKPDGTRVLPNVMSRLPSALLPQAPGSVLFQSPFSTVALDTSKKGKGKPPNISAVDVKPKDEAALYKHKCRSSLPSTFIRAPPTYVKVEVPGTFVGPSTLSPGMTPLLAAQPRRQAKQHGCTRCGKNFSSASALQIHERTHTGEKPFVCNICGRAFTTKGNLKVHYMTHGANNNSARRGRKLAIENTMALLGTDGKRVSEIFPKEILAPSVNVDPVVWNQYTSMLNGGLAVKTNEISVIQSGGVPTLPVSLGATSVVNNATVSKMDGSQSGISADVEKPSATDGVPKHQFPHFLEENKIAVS
Strand,E-score
AGGTACTC,0.0358
GCGAGGCC,-0.345
AGCTTCAA,0.176
ACAGGACC,-0.232
ACAGGGTC,-0.251
GTACGGAC,-0.122
ATCGTCTC,0.0421
ATGAATGC,0.248
ACTTTGCC,-0.172
AGCTGTAT,0.0917
CCTGATAC,0.145
CCATTGAG,0.1
CAATTCTG,-0.0267
AACTAGAG,0.0262
ACCGGCGG,-0.29
AACTCTTA,-0.0115
ACGGCGCC,-0.269
CTGAGCTA,-0.245
CGTTCCCC,-0.264
GTCGTTAA,0.144
AAAGGACA,0.0132
GCTCCTCA,-0.31
GTGTACCA,0.047
ATGCAGGC,-0.159
GAGGTGGA,-0.199

# Sample 5
# Target: RNA binding protein fox-1 homolog 2, RRM domain, GST-SBP tag (RBFOX2, Homo sapiens, UniProt O43251-10, residues 100-194)
# Method: RNA Bind-n-Seq
# Molecule type: RNA
# Matrix: in vitro
# Concentration: 365 nM
# Notes: natural RNA segment, single round, ends assumed
# Baseline: no-protein control
# Reading: higher = stronger binding
# Shared flanks, not repeated: GGGAGUUCUACAGUCCGACGAUC … UGGAAUUCUCGGGUGCCAA
# Target sequence (chain): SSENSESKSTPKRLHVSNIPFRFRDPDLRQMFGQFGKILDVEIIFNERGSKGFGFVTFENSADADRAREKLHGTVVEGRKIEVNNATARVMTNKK
Strand,RBNS enrichment (R)
AAAAAAACAAAACAAAAACAAACCUUUUUUGUAAGUUCAUCCAUUUUCUACAGAAGUCCAGCCCAGAGUCCCCACUUUGCUAGUGCUGCCUGGCUGCCACCGCCUAACGC,0.554
GCUCACAGGUGUUUGUUGGAAUCAUUUGCCGAGUCAUUUCCUCAAAUCAUAUUCCAUUGUGUCAGUUAACAUAGAGUUUUAAAUGUAUGUAUUAUAAAUACCUGUAACCA,0.445
GCACUGCUGUGUGGGCCGUGCAUGAUGUUUCCCCAUCAUUUCUUAAGACUGUUUUCCUGUGUAAGUGUUGCCCUCUAGAGGUACCUAGCAGUCACCCCACAAGCCUACCA,0.401
UCUAGUUGUGUUGAAGCCAAGUGCAGUUGUGGAUGUUGCUGGGGUAAUAAAGGCAAGCGGGCUCCAGAGCCUCUCUGGUGGCGGCCAAGCCACACUCCCUUAACUGGGAA,0.533
AUUUUGUACAUAUGUUUGCUCUUUUUUUGUACAGACUAGUUGUUGAGAAAACAGGGGCGUUUCCUAAUUUGGUCUUUAUCCUGCGACAACACUUUCAGCAGACUAGCCUC,2.48
UCAGGAUGAUCUCAGCACUGUGGGUCACCGUGCCGUGCCCAGGAUCCGAGGCCACCCUUCACGGCGAGCCUCGUGCUGGGCUCUUACCUGUGCUUUCUUGCUCUGGACUG,0.341
CUUUUUCUUUUCCUGGGGACUUGUUUCCAUUAAAUGAGAGUAAUUAAAAUCGCUUGUAAAUGAGGGCAUACAAGCAUUUGCAACAAAUAUUCAAAUAGAGGCUCACAGCG,0.739
CUGCCUACCCUCGAGUCCCGCAGCCUUAACAGGAUGGGAUCGAGGGUCCCCAUGGGGUGGCUCAGAGAUAGGACCCUGGUUUUAAAUCCCUCCCAGCCUGGUGCUGGUGA,0.266
CCCUUACCCCUGCUGCUUCAGGGUUUUUCCCCGGCGGGUUGGGAGGGGCAGGAGGUGGGGUGGAAAUAGGGUGGGCUCCUUUCCUCAGGUAGAGUGGGGGGCCAAAACCU,0.361
GUAAGAACUAAUAACCUGUGUCUCCUAGACGAGUCAGGAUGGGAACUGACCUCUAGGAGAUUCUAGUCAGGAGCCCACUAACCUGGGCCGUCAUGUUUAGAGCUGAAGGA,0.597
AUAUAAACUUGGAAAGGCAUUUAGCCUUGAUUUGUUAAAUCCUAAGGAUUUCCUGUAAGGUUUUUUGCAACCUAUUUAGUUUUUGUCAUUUAAAAUGCCUAACUUCUUAG,0.522
UUGUCUCUGUUCUGUUUAAACUUAUGUAGAUUAUUAUAAAUUGAUGUAAACCAUGUGAGAGGGAAAUGUUAAUAAAAAAAUUGCAAAGCCUCAACAUUUGCACAAAACUC,0.783

# Some of these lines once more (sample 4):
Strand,E-score
ACTTTGCC,-0.172
AGCTGTAT,0.0917
CCTGATAC,0.145
CCATTGAG,0.1
CAATTCTG,-0.0267
AACTAGAG,0.0262
ACCGGCGG,-0.29
AACTCTTA,-0.0115
ACGGCGCC,-0.269
